# Results from different studies.
# Every numbered part comes from another study and shows a few of its results, in no order. Changes are numbered by the printed parent chain.

# Series 1 — technique: RNA Bind-n-Seq; form: RNA; matrix: in vitro; tested at: 365 nM; baseline: no-protein control; direction: higher = stronger binding
# Target: RNA binding protein fox-1 homolog 2, RRM domain, GST-SBP tag (RBFOX2, Homo sapiens, UniProt O43251-10, residues 100-194)
# Notes: natural RNA segment, single round, ends assumed
# Residues (chain): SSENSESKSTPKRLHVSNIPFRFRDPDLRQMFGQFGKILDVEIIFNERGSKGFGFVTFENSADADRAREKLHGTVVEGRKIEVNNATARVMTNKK
Oligonucleotide,RBNS enrichment (R)
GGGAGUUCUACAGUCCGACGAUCUUGUUAUGUUGUAAUAUUUUGCUGCUGAAUUUGGGGCUACUUAUAUUCUGCAGAAAAUUAAUUGAAAUACCUAUUCAAGAAGAUAGUUGUAAAGAUAUUGUAUCUCCUUUUGGAAUUCUCGGGUGCCAA,0.263
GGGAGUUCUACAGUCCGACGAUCUUCCCAGAGUUCUGGCAGGCAUCCGCACCAUGGGGAAGCUUCAUCUACCAAUGAUUGUUUAGCUAGCAAGAAUGGUAAGACUGAGGCACCAGUGAGUGAGCAAACCACUUUGGAAUUCUCGGGUGCCAA,0.334
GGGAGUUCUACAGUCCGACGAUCAACAUAAAAGGAAAGCUGGCAGUGGGUCUUGGUAAUAUAUGAACUAUAUUAGAGUGCCAGAAAAGGAGACCUCAGAAGUUAAGCAUAGGUUGCCAAUCUGCUACAAUUAUUGGAAUUCUCGGGUGCCAA,1.02
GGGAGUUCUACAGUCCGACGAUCAUCAACUUUUAACAGCCCACUCACUGGCUUUUCUAAACUACCAAAAACCACCUGUAGGAUACUGCAUUAAGUCAGCAUCUCAGAAACAGUGGUGUGAGUAACUGAGUCAAUGGAAUUCUCGGGUGCCAA,0.277
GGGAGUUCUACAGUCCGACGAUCAUCUAGGAACCGCCGCUGCCUGCUGAGGGCCAGGCCCCUCACGCCCUCGCCCCAGGCCCGGGUCCUCCAGCGUUGAACACUUCCUUGCUUUUUUCACAUGUUUUAUGGAAUGGAAUUCUCGGGUGCCAA,3.1
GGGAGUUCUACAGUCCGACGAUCACUGUUCACUUCCUUGUUGUAUUGCAGUAAAAGAUUUAAAACAACCAUUGCAUGUUUGCUUUUGAUGUAUCCCUUUGUGAAAUCAGCACUUCUGGGGCCAAUGAAGAAACUGGAAUUCUCGGGUGCCAA,7.65
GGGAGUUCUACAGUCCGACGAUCUGUGUGUGUGUUUUUUUUUUUCUUAAGUGACUUUGAAAUUUUAAAUAACAAUUUAAAACAUUAAAAUUUCUUAUUAUCUUGGUCAUUUAAACCUGCUAAUAUGACUCCCUUGGAAUUCUCGGGUGCCAA,0.697
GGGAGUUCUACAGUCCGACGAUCAACUUCCCCUCAAAAAGGAAUCAACCCCAGGAAGUAAUUAUUUACAACGAUUUUCCCAAAUUUUGUACAAUCUGUCCUGGAAAGCAAACCCCUUUUAAAAUCUAAUGUCUUGGAAUUCUCGGGUGCCAA,0.287
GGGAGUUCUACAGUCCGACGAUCUCAUAAUUUAAUAAAACGCUUACUAGAAAGACCAUUACAGAUCCCAAACACUUGGGUUUGGUGACCCUGUCUUUCUUAUAUGACCCUACAAUAAACAUUUGAAGGCAGCAUGGAAUUCUCGGGUGCCAA,0.617

# Series 2 — technique: competition protein-binding microarray; form: double-stranded DNA, one strand shown; matrix: in vitro; tested at: 2 µM; together with: Cbf1 competitor, 0.05 µM; direction: higher = stronger binding
# Target: Phosphate system positive regulatory protein PHO4, full length, GST-tagged (PHO4, Saccharomyces cerevisiae, UniProt P07270, residues 1-312)
# Notes: whole 60-bp probe, lowest competitor level
# Target sequence (chain): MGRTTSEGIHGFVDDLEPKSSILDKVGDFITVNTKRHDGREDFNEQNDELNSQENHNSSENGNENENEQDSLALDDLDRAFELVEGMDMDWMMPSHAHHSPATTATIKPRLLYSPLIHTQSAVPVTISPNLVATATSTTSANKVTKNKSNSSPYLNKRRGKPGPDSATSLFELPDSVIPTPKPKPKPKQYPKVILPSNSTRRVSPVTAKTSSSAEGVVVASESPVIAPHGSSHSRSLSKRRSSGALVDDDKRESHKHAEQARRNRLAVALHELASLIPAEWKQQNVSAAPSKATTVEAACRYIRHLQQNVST
Oligonucleotide,fluorescence intensity
CATACCCAACCTTGTCACTACACTTAAGATATTTGTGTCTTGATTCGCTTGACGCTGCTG,3980 a.u.
TGCGCAACAACTTAGCACGTGTTTTTATGTCTAGAAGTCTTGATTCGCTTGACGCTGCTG,22500 a.u.
CCGGCCCGTCCCGTCCGCGTGGTGAGTAATTCTGGCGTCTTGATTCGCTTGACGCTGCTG,11400 a.u.
GCCAGTAATTTACTACACGTGTATATATCAGAAAAAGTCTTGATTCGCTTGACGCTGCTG,18400 a.u.
CTTTCCCGATCTTTTCACGTGTTATTAGCACATTTGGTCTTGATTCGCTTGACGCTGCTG,14000 a.u.
CCCGCGGGTCGCTATCACGATTCAGCACCCTTTGGAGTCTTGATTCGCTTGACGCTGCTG,4600 a.u.
GCTGCCAAGAAAAAGCACGTGTAACAATGGAATGATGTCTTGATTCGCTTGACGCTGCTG,18100 a.u.
CATACCCAACCTTGCTAAGTGGGTGAAGATATTTGTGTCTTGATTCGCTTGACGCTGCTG,3640 a.u.
ATGGACAATAACGACCACGTGGGTAACGCAATGACTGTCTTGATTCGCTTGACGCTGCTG,21300 a.u.
TCCTTATGCAGGTATTCTGTGACAGTAAAGTATAGAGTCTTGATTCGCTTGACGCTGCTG,4030 a.u.
CACTGAGTACTTCCTCACCTGATCCAATCGATTGACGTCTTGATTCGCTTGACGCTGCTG,3590 a.u.
ATTGGGCGGCTAATCGGCGTGCTGTATAAATCGAGTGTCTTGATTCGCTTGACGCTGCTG,9180 a.u.
CGGGGTTAAGTTTGTCGAGTGGGTGGCTTGCAGCAGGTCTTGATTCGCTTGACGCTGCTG,4580 a.u.
TGGACAAGACCAAGCCAGGTGACGGAGTTAACGTTGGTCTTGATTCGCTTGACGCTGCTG,3690 a.u.
TAGTTGCATCATCGACACATGCAATATCAAAAGTAAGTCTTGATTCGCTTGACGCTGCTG,8660 a.u.
TTACTTTCTCTCGCGGTTGTGACGGCCTTCAATGAAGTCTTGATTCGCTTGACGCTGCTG,3980 a.u.
TGCCCTTCGCAAAGCACCGTGCTTTTAATGGCAATCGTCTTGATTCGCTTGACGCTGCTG,7020 a.u.
GGAGAAGGTATTGATAACCTGCGGGACCGTCTGGTGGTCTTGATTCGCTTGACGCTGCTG,2720 a.u.
GACAATTTGGATTTACACATGGTTGAGATCCTGCAGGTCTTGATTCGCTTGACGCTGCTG,6400 a.u.
CTTTCCCGATCTTGGCTTGTGGGTGTAGCACATTTGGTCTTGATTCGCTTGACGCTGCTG,5060 a.u.
ACTTGATTTGCGGAGAACGTGATGGCGACGCACTCGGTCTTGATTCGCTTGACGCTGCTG,12800 a.u.
TGAGGAGAACGATTGTTCGTGCCAGTGGCAATGGAAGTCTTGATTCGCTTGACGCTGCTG,4790 a.u.
CGACGTTATCGTTACCACCTGAGGCAAGTTTGTTGTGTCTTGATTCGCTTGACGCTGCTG,3630 a.u.
TGCGCAACAACTTGCTTTGTGGGTGTATGTCTAGAAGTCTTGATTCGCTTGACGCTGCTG,4520 a.u.
GCCACATCCTTTACCCACGTGCTTTTTTAGCCAGACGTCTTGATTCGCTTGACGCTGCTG,19200 a.u.

# Series 3 — target: CCNE1, cyclin fold, Cln2 fusion (human); technique: yeast growth competition, sequencing; matrix: yeast; notes: strong parent motif; baseline: not given; direction: higher = stronger binding
# Parent: E2F1 docking peptide (human); PPVKRRLDLETDH
Variant,normalised enrichment score
D8W,4.87
H13Y,2.18
T11I,2.12
P1W,2.47
R5F,0.345
E10R,0.901
R5L,0.164
D12T,1.44
D8I,1.68
V3K,0.861
E10M,1
D12H,1.17
D8P,0.0833
V3W,0.923
R5Q,0.125
K4T,-0.678
V3L,-1.11
R5T,-0.189
T11G,1.9
P2Q,0.954
E10W,1.44
R6E,0.916
T11R,0.818
H13L,2.22
H13V,1.98

# Series 4 — technique: protein-binding microarray; form: double-stranded DNA, one strand shown; matrix: in vitro; tested at: 2540 nM top; notes: 60-bp whole probe; together with: salmon DNA 0.4 mg/ml; baseline: random background probes; direction: higher = stronger binding; shared flanks, not repeated: GCCTAGCAC … GTCTTGATTCGCTTGACGCTGCTG
# Target: Interferon regulatory factor 3, full length, phosphomimetic (IRF3, Homo sapiens, UniProt Q14653, residues 1-427, S386D/S396D/S398D/S402D/T404D/S405D)
# Construct (chain): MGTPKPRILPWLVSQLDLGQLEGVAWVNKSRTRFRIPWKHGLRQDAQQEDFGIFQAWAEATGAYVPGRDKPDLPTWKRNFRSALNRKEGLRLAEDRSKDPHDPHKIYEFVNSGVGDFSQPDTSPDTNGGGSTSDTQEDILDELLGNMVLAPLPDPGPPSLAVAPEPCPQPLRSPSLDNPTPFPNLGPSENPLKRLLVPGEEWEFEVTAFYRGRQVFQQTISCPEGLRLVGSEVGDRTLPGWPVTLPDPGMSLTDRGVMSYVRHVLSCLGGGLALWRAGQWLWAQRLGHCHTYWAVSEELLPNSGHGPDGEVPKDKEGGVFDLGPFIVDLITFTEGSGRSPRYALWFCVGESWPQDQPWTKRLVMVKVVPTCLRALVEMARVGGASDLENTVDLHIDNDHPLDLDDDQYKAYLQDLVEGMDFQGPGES
Oligonucleotide,fitted relative affinity [z-score]
GACGAACTGAGACCGGAGACGTGCTAG,-0.21
GACGGACTCGACACTGGGGACGTGCTA,-0.705
GAAGGTTTCGGTATCGGGACGTGCTAG,8.71
GACGGTATCGGTCTCCGGACGTGCTAG,4.55
TTAGGTTTCGACACTGGGTTCGTGCTA,2.42
TCTCTGTTCTTTTCAGTCCCGTGCTAG,1.94
TTAGGTATCGGGTATAGGTTAGTGCTA,0.936
GACGGACTGGGTCGCGGGACGTGCTAG,-0.726
GACGGTATTCTTTTCCTGACGTGCTAG,1.96
TTAGATATCAGTATCGATTCGTGCTAG,2.57
GACGGTATCCTACTTCTGACGTGCTAG,4.07
GATGGCCTCTTGCTCAGCCCGTGCTAG,-1.08
TTAGAACTGAGCTTCGATTAGTGCTAG,-0.524
TTAGGTTTCCTTACCCTTTAGTGCTAG,6.4
TTAGGCTTCGGACTGGGTTAGTGCTAG,-0.9
TTAGTTATCGGTCTCGGTTAGTGCTAG,2.74
TTTTATGAAGGCCGGGGAGGGTGCTAG,0.112

# A few entries again (series 3):
Variant,normalised enrichment score
E10M,1
D12H,1.17
D8P,0.0833
V3W,0.923
R5Q,0.125
K4T,-0.678
V3L,-1.11
R5T,-0.189
T11G,1.9
P2Q,0.954
E10W,1.44
